Assay results gathered from unrelated publications.
Every numbered part comes from another study and shows a few of its results, in no order.

Sample 1
Target: PABPC1L2, full length, GST fusion (mouse, UniProt A0ABA7IW68)
Method: RNAcompete
Molecule type: RNA
Sample: in vitro
Tested at: 20 nM
Notes: 7-mer, probes averaged, single round
Reference: mean of 7-mers
Direction: higher = stronger binding
Measurement: 7-mer Z-score
Residues (chain): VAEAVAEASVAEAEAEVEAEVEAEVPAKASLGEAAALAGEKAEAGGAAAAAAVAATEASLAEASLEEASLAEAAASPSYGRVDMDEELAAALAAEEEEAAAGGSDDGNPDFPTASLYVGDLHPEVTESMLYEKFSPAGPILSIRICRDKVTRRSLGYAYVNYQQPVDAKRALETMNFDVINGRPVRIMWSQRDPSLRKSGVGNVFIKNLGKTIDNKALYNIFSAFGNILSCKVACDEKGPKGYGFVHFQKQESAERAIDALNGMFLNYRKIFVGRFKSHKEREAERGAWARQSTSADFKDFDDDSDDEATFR
GGUUGAG: -0.0573
AAGGAUA: 0.115
AUUCCAC: -0.159
AGAGUGC: -0.128
UACUGGC: -0.05
CGGAAUU: -0.0246
GUGCCGC: -0.291
UACACGA: 0.0279

Sample 2
Target: Hepatocyte nuclear factor 3-alpha (Foxa1, Mus musculus, UniProt P35582, residues 1-468, full length assumed)
Method: EMSA with sequencing
Molecule type: double-stranded DNA, one strand shown
Sample: in vitro
Tested at: 10 and 20 nM
Notes: whole designed probe, mean of two concentrations, ends assumed
Reference: negative control set to 0
Direction: higher = stronger binding
Measurement: normalised bound fraction
All sequences stand within: GTGAGCGGTGCCCATTGATGGGGAAC … TTTCACTGGGATCGTGGGGAC
Residues (chain): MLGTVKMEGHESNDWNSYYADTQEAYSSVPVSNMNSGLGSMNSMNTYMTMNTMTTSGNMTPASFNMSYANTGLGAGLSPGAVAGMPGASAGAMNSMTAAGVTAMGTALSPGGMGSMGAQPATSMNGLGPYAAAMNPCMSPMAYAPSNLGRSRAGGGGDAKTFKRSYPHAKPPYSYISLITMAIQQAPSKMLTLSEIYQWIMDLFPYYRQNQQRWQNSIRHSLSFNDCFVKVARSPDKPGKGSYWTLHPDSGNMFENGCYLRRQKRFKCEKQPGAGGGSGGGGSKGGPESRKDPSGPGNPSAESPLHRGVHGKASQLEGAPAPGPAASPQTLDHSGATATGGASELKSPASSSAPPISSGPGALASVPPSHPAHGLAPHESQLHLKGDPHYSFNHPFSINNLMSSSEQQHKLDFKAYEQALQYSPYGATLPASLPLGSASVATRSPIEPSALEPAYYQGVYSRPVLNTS
GTCCATCACCATTATTTATTTTTAAAGCTGCTGAAAAGTGTAAGCCACCGCTTGATTTTGCCTTTCAAAAAAGGGGAAAGAACCCAAATTCAATGTAAATATGGAAAGACCAGCATTGTTTCCACTTGGGCGAAGGCAGACACCCCAATCTGGGCAAAATTGATTCGGGTGGTTGTTGGAAAAAGCAGCTTTC: 0.134 ratio
AACACCAAACATAATTTAAAGATTTAATATACAAGTGTCTTGTTAGAAATAAAAACTTTCAGGGGGGTAATAAGGAAAAGAGATTGAATGCAAAGTAAACAAGCAATTTTGCTAAACAGTGACAATTACATCAACCTGACTTAAAGCAAAAGACTTTGTTTGCTGTGTGTATATATATATACCTACAGATATA: 0.494 ratio
TAAAACCCGGTGACTCTTTTGCACATTTAATTTGAGAACAGGTGAACTAGCTAGATGGATGTTCTCCAGGAAACACTTCTAAGGTGAAAAAGATGTTGACTCACGCTTTCTCCTGATCTGGCCACCAGGTGGCACTGACAAGCTGGGGCGACTTCGTTGTGGGCAGAGGCGGGACAGATAATTAGGCAGCCTT: -0.00482 ratio
ATCTTCCCCCTCTTCCTTGCCCCACCAGCTCACCTTCCCGGGTTATTTGCAGATAGGAAAATAAATAAAGCCGGCATTCGTTAACGCAGTTCACGCGCATACTGCTGTTTGCTCTGCATCTAACATGGTCCTTACGCGAGGCGTGGCTCCGGGAGAGCAAAGCACCGTGTCAGGCGCATGATCCGGGCTCGCC: 0.364 ratio
AACTATTATAAATAACAATTACAGAGGCGTATCAAAAAGGCTTTTAATTGAAGAGTATTTACAATTAAATTATAACAGAAAGAATACTGTAAAAGTAAACAAGTAAGTTCTTTTTGAAAAACAGGAATGTGTAACATTCAAAAAGACCACAAAAATTAATTTCTGTGTTACAGAATATTGAGAAATCCTATTC: 0.41 ratio
GGTGGGATGGCTGCCCGGTAGAGACCGCCACCCAGACTCCCAGTTGCAGCTTCCTGCTGGGCCACATGGATGTTGTTAGGTTAGTGTTTTAGAGTCATCTAGGCCTAAACAGATCTATCATTTCCATTTCTCTAATTAGTTCCCTAATTTTATTACTGATATCATTATACTTCCTCTTACTCTGGTTCAAAAG: -0.0159 ratio

Sample 3
Cell line: HEK-293T/ACE2
Observed: pseudovirus infection
Organism: VSV pseudotyped with SARS-CoV-2 spike
Tested at: 10 µM
Time: 16 h
Reference: vehicle-treated
Measurement: GFP-positive cells
C#C[C@]1(O)CC[C@H]2[C@@H]3CCC4=CC(=O)CC[C@@H]4[C@H]3CC[C@@]21C: 80.8%
COc1ccc(Cl)cc1C(=O)NCCc1ccc(S(=O)(=O)NC(=O)NC2CCCCC2)cc1: 65.2%
N#Cc1ccc(C(c2ccc(C#N)cc2)n2cncn2)cc1: 63.9%

Sample 4
Target: Sox-I, HMG box (Salpingoeca helianthica)
Method: Spec-seq
Molecule type: double-stranded DNA, one strand shown
Sample: in vitro
Tested at: not given
Notes: whole probe, mean of replicates
Reference: not given
Direction: lower = stronger binding
Measurement: relative binding energy
Target sequence (chain): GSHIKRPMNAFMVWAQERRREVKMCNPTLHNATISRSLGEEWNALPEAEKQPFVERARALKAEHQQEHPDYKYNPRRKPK
GAGTCGTCTCGTCAGCACCATGAACCCGTAGAGCACTCAGGTC: 0.583 ln ratio
GAGTCGTCTCGTCAGCACCATCCCTCCGTAGAGCACTCAGGTC: 0.6 ln ratio
GAGTCGTCTCGTCAGCACCATCGGGCCGTAGAGCACTCAGGTC: 1.08 ln ratio
GAGTCGTCTCGTCAGCACCATTCAGCCGTAGAGCACTCAGGTC: 0.257 ln ratio

Sample 5
Target: Replicase polyprotein 1ab, main protease (rep, Severe acute respiratory syndrome coronavirus 2, UniProt P0DTD1)
Observed: enzyme activity
Mode: inhibitor
Tested at: 20 µM
Notes: primary screen
Measurement: inhibition
c1cc[n+]2c(c1)[S][Zn]1([O]2)[O][n+]2ccccc2[S]1: 99.7%
O=C(NC1CCCCC1)N(CCCl)[N+][O-]: 62%
NC(=S)N/N=C/c1coc2ccccc2c1=O: 76%

Sample 6
Target: Replicase polyprotein 1ab, polymerase (rep, Severe acute respiratory syndrome coronavirus 2, UniProt P0DTD1)
Observed: enzyme activity
Mode: inhibitor
Tested at: 20 µM
Measurement: inhibition
C[C@@]12CC[C@@H]3[C@@](CC[C@H]4[C@@]3(C)CCC[C@@]4(C)C(=O)O)(CC1=O)C2: -1.37%
COC1(C2=NCCN2)COc2ccccc2O1 (stereo not drawn): -1.52%
COc1ccc(S(=O)(=O)Nc2nc(-c3cccc([N+](=O)[O-])c3)cs2)cc1OC: -2.1%
O=C(O)c1cc(N2N=C(C(F)(F)F)/C(=C/c3ccc(-c4ccccc4)o3)C2=O)ccc1Cl: 32.5%
C=C(C)CN1CC[C@]23c4c5ccc(O)c4O[C@H]2c2[nH]c4ccccc4c2C[C@@]3(O)C1C5: -4.67%
CCC(=O)[C@@]1(C)[C@H](C)C[C@H]2[C@@H]3CCC4=CC(=O)C=C[C@]4(C)[C@H]3[C@@H](O)C[C@@]21C: -3.94%
NCCc1c[nH]c2ccc(O)cc12: -2.55%
NC(=O)C(c1ccccc1)(c1ccccc1)[C@@H]1CCN(CCc2ccc3c(c2)CCO3)C1: -7.38%
CC(C)SC(=N)N: 3.95%
COc1ccc2c3c1O[C@H]1C[C@@H](O)C=C[C@@]31CCN(C)C2: 18.3%
COc1ccc(-c2ccc(=N)n(CCCC(=O)O)n2)cc1: 1.62%
CCCOC(=O)c1ccc(O)cc1: 2.25%
N[C@@H](CC(=O)O)C(=O)O: -0.5%
COc1cc2nc(N3CCN(C(=O)c4ccco4)CC3)nc(N)c2cc1OC: 11.1%
CCCc1c2oc(C(=O)O)cc(=O)c2cc2c(=O)cc(C(=O)O)n(CC)c12: 7.4%
Nc1c(CC(=O)O)cccc1C(=O)c1ccccc1: -5.41%
O=C1COc2nccc(-c3ccccc3F)c2CN1Cc1cc(C(F)(F)F)cc(C(F)(F)F)c1: -23.3%
Cn1cc(-c2ccc3c(c2)CCN3C(=O)Cc2cccc(C(F)(F)F)c2)c2c(N)ncnc21: -0.08%
COc1ccnc(C[S+]([O-])c2nc3cc(OC(F)F)ccc3[nH]2)c1OC (stereo not drawn): 6.02%
CC(C)Cc1sc(N)nc1-c1ccc(P(=O)(O)O)o1: -0.48%
COc1cc2c(=O)c(-c3ccc(O)cc3)coc2cc1O: 2.36%
Cc1[nH]c2ccc(O)cc2c1CCN: -10.3%
CCCCCCCC(=O)OCC(O)CO (stereo not drawn): -11.5%
C=CCOc1ccc(CC(=O)O)cc1Cl: -1.99%
CCCCCCCCCCCCCCCCn1cc[n+](Cc2ccccc2)c1C: -2.41%

Sample 7
Target: RNA binding protein fox-1 homolog 2, RRM domain, GST-SBP tag (RBFOX2, Homo sapiens, UniProt O43251-10, residues 100-194)
Method: RNA Bind-n-Seq
Molecule type: RNA
Sample: in vitro
Tested at: 365 nM
Notes: natural RNA segment, single round, ends assumed
Reference: no-protein control
Direction: higher = stronger binding
Measurement: RBNS enrichment (R)
All sequences stand within: GGGAGUUCUACAGUCCGACGAUC … UGGAAUUCUCGGGUGCCAA
Construct (chain): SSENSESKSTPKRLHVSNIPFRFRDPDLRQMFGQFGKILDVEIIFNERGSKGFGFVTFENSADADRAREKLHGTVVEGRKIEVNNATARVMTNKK
UGAUUCAACAGAUUCAAACUUCCUACAGCCUUCUACUGAUGUCUUACAAGCUCUUGCCUCUGUGCCUUUCUCAUGCUAUUCUUUUUGCUUAGAUUGCUCUUUGGUCCCAG: 0.42
CUUUAUUUUUAUGCUAACAACCUUAUUUAAUUAAAAGUGCUGAAACCUGGCAAACUUCUCUAGCAUGUGCUGAAUGGGAGUGUCAGCUGCCAGGGAGCCUUAGGACCCCA: 8.53
CACCCCUUAACUUUAAAAGAAUGUGAAAAACUAGCAUCAUAGUGCAUAUAAAUACUCAACCACAUUUCAGCUUAAGCUUCUAAUUUCUCAAGAAGUUGAAACAGUUAGUU: 0.873
UUACCCAGACUCAAGGAGUUGGUAAAGGGUUAAUAGCCAGAUAGUAGAACCAGUGAGGAGAUGCGGCCAAAGAUUCUUUAUAUCUGAACCAAGAUGUAAAACAAGAAAUG: 0.685
CACUUUCAGGCCCUCCGGUGUGUUGCCUGGUAGGAUAACUGCUCCAAGCAGCUACCUACCUUGACUCCCAUAGCUUAGGACACAAGCCAGCUCUGAGCUACAUGAAGUAA: 0.265
ACACCCGCUGAUCCUUUAACAAGGAUUUCUGGCAGGAAACUCACAAAAAGGAGAACUGAAAAUUUAGACAUACAGUUGGCCAUUGUAAAAAACAUCAGUUUCCUCUCAUA: 0.38
UUUUGCAUUGAACAUUAAUGUAGCGGAUAUAAUUUGAUGAUUAUACUUCAUUAGAUUUAAUUUCUAGGCCAAGAUGUUACUUUUUAAAGUGCAGUUUAAGGUUCAGGCAU: 0.327
AGAGCUUUUCUUCAUCCAGAAUUGCCCUCUGGGCUCCUUUGGUAACAGAUGGAGCUCCUUCCUAGCUAGGGAGACCUUAUGAGAAGUGGAUGGUAGGAGGAGUCACUAAU: 0.281
